Measurements pooled from the literature.
Protocols differ between the studies behind these lines. Several values in a cell are separate wells, animals, samples, runs or records.
Mode: inhibitor
PIK3CA: Phosphatidylinositol 4,5-bisphosphate 3-kinase catalytic subunit alpha isoform (PIK3CA, Homo sapiens, UniProt P42336)
UniProt P42336, sequence (whole entry, looked up): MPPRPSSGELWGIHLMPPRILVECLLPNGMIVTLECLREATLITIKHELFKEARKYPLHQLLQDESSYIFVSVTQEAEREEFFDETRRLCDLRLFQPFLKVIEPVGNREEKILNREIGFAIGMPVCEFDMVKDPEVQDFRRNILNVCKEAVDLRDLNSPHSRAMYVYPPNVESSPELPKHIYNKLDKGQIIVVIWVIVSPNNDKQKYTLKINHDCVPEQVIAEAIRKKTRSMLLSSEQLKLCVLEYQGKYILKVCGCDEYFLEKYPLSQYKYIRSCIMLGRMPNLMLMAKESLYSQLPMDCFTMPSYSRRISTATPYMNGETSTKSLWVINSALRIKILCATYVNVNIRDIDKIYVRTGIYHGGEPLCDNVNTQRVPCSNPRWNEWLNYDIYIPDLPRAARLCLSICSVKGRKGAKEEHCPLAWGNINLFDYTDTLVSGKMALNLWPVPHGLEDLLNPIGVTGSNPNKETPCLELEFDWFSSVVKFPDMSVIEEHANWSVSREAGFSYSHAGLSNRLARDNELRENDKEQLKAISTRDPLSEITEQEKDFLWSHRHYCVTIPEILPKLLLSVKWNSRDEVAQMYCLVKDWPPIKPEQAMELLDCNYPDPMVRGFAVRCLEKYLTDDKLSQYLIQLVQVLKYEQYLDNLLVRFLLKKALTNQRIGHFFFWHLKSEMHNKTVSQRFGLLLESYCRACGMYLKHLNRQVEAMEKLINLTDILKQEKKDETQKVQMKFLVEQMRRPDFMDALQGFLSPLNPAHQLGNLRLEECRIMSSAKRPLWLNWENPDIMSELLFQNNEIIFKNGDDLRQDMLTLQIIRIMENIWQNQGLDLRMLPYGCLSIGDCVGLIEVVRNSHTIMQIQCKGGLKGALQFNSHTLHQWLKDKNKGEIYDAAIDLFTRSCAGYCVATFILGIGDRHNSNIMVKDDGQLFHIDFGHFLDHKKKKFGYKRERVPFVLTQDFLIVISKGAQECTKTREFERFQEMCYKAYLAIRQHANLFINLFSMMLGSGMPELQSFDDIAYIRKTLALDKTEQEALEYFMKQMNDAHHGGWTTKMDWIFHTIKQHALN

SMILES	target	observed	method	notes	IC50
O=C(CCc1ccco1)N1C(=O)C2(NC(c3ccc(F)cc3)C3(C(=O)Nc4ccccc43)N2Cc2ccc(F)cc2)c2ccccc21 (centres unmarked)	PIK3CA	enzyme activity	ADP detection		889 nM
Cc1nc(N(C)c2ccc3c(c2)/C(=C/c2cn(C)c4ccccc24)C(=O)N3C)c2ccccc2n1	PIK3CA	enzyme activity	ADP detection		71.7 nM
O=C1NC(=S)S/C1=C\c1ccc2c(c1)OCO2	PIK3CA	enzyme activity	radiometric		270 nM
O=C1C(Nc2ccc(Cl)cc2)c2ccccc2N1Cc1ccccc1 (centres unmarked)	PIK3CA	enzyme activity	ADP detection		29.4 nM
CCN(CC)CC(=O)Nc1cccc(-n2cc(-c3ccc4ccc(-c5cn(-c6cccc(NC(=O)CN(CC)CC)c6)nn5)cc4c3)nn2)c1	PIK3CA	enzyme activity			> 10000 nM
Cc1nc(N(C)c2ccc3c(c2)/C(=C/c2ccccc2C)C(=O)N3C)c2ccccc2n1	PIK3CA	enzyme activity	ADP detection		33.7 nM
CC(=O)N1c2ccc(-c3ccc(CNC(=O)c4cn5cc(-c6cnc(N)nc6)nc(N6CCOCC6)c5n4)cc3)cc2CC[C@@H]1C	PIK3CA	kinase activity	Kinase-Glo		98 nM and 98.2 nM
Cc1nn(-c2cccc(N)c2)c(=O)c2cnc(Nc3ccc(N4CCNCC4)cc3)nc12	Phosphatidylinositol 4,5-bisphosphate 3-kinase catalytic subunit alpha isoform, with p85 alpha (PIK3CA, Homo sapiens, UniProt P42336)			with PIK3R1 (p85α)	> 10000 nM
Cc1nc(Nc2ccc3c(c2)/C(=C/c2cn(C)c4ccccc24)C(=O)N3C)c2ccccc2n1	PIK3CA	enzyme activity	ADP detection		49.5 nM
Cc1cc(NC2CCN(C)CC2)ccc1-c1cc2c(N3CCC[C@H](C(=O)NCc4ccc(OC(F)(F)F)cc4)C3)ncnc2[nH]1	PIK3CA	enzyme activity	ATP luminescence		> 8000 nM
COc1ccc(CN2C3(NC(c4ccc(OC)cc4)C24C(=O)Nc2ccccc24)C(=O)Nc2ccccc23)cc1 (centres unmarked)	PIK3CA	enzyme activity	ADP detection		964 nM
O=C1NC(=S)S/C1=C\c1ccc(-c2cc([N+](=O)[O-])ccc2O)o1	PIK3CA	enzyme activity	radiometric		4000 nM
Cc1nc(N(C)c2ccc3c(c2)/C(=C/c2ccccc2)C(=O)N3C)c2ccccc2n1	PIK3CA	enzyme activity	ADP detection		25 nM
O=C1Nc2ccccc2C12NC(c1ccc(Cl)c(Cl)c1)C1(C(=O)Nc3ccccc31)N2Cc1ccc(Cl)c(Cl)c1 (centres unmarked)	PIK3CA	enzyme activity	ADP detection		685 nM

Excerpt of the above:
SMILES	target	observed	method	notes	IC50
Cc1nc(N(C)c2ccc3c(c2)/C(=C/c2ccccc2)C(=O)N3C)c2ccccc2n1	PIK3CA	enzyme activity	ADP detection		25 nM
O=C1Nc2ccccc2C12NC(c1ccc(Cl)c(Cl)c1)C1(C(=O)Nc3ccccc31)N2Cc1ccc(Cl)c(Cl)c1 (centres unmarked)	PIK3CA	enzyme activity	ADP detection		685 nM
